# Measurements pooled from the literature.
# Numbered parts are unrelated; each lists some results of a single study. “And” joins repeats or separate records; there may be more than shown. Positions count from the first letter of the parent shown.

# Series 1
# Target: Leukocyte tyrosine kinase receptor (LTK, Homo sapiens, UniProt P29376)
# Sequence of UniProt P29376 (whole entry, looked up): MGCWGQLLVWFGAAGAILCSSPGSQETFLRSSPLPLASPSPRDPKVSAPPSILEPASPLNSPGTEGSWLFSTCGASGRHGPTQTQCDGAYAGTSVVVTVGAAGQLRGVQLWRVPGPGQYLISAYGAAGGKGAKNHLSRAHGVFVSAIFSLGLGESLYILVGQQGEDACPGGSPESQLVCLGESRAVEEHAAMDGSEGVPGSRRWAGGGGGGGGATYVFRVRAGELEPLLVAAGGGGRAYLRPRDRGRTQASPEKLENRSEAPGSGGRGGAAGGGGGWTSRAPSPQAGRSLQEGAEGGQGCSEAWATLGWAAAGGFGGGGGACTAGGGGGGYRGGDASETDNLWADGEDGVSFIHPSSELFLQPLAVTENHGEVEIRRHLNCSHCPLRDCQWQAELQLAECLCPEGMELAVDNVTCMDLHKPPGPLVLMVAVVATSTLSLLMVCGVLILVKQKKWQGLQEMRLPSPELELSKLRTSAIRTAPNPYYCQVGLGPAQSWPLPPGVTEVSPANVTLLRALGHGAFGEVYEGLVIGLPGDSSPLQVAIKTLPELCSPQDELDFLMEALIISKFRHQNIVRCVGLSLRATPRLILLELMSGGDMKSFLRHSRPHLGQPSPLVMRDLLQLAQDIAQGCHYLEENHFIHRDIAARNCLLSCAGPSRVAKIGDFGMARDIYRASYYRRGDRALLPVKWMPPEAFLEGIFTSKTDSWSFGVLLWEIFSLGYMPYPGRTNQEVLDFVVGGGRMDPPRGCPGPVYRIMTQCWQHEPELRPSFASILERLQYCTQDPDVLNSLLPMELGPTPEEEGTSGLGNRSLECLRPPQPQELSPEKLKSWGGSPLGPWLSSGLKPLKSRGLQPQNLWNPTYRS
# Observed: enzyme activity
# Mode: inhibitor
# Technique: radiometric
# Concentration: 0.5 µM
SMILES,remaining activity [%]
Cn1cc(/C=C2\C(=O)Nc3ccc(S(N)(=O)=O)cc32)c2ccccc21,54.5
COc1cc2ncnc(N3CCN(C(=O)Nc4ccc(Oc5ccccc5)cc4)CC3)c2cc1OC,89.8
Cn1cnc2cc3c(Nc4cccc(Br)c4)ncnc3cc21,77.9
Nc1[nH]nc2nnc(-c3c(-c4ccccc4)nn4ccccc34)cc12,90.5

# Series 2
# SMILES: CC(C)S(=O)(=O)c1cc2c(Nc3ccc4sc(C5CCCC5)nc4c3)ccnc2cc1OCCO
cell line,observed,technique,concentration,together with,viability
L929,,CCK-8,25 µM,,56.3% and 75.5% and 55.6% and 56% and 76%
L929,necroptosis protection,CCK-8,2.5 µM,TNF-α plus zVAD,101%
L929 RIPK3 knockout,,,12.5 µM,zVAD,78.2% and 87.2% and 80.7% and 90.9%
L929 RIPK3 knockout,,,3.125 µM,,99.8% and 89.5% and 90.9% and 96.5%
L929,,CCK-8,12.5 µM,,78.2% and 77.3% and 75.7% and 91.9% and 89.9%
L929 RIPK3 knockout,,,3.125 µM,zVAD,98.2% and 92.8% and 91.8% and 90.1% and 98.5%
L929,necroptosis protection,CCK-8,0.039 µM,TNF-α plus zVAD,46.6%
L929 RIPK3 knockout,,,100 µM,zVAD,11.6% and 17.8% and 14% and 11.5% and 13.9%
L929,,CCK-8,100 µM,,8.1% and 8.19% and 15% and 8.65%
L929,,CCK-8,0.781 µM,zVAD,90.8% and 86.3% and 94.6% and 66.1%

# Series 3
# Target: Muscarinic acetylcholine receptor M1 (CHRM1, Homo sapiens, UniProt P11229)
# Sequence of UniProt P11229 (whole entry, looked up): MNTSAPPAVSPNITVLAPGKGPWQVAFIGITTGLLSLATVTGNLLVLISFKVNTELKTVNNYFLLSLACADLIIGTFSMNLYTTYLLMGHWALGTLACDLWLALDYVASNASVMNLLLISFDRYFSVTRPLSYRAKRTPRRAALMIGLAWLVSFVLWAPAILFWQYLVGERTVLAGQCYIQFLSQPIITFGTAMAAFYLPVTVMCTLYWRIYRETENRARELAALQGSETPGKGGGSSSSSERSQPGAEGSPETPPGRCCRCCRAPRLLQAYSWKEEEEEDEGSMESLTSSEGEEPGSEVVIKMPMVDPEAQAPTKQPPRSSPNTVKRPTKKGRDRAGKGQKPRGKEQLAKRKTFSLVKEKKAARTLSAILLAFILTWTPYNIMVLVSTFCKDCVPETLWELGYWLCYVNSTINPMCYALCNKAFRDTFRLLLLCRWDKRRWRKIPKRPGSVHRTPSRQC
# Observed: ligand displacement
# Concentration: 10 µM
Compound,inhibition
Cc1c(NC(=O)c2cc(C(N)=O)nc3cc(F)ccc23)c(C(F)(F)F)nn1Cc1ccc(C#N)cc1,28.2%
CN1CCN(C(=O)C(C)(C)c2ccc(C(=O)Nc3cn4cc(-c5cc(C(C)(C)C)cc(C(C)(C)C)c5)ccc4n3)cc2)CC1,68.3%
CC[C@H](CC(=O)O)n1c(=O)c2ncccc2n(Cc2cn(C)c3cc(C)cc(C)c23)c1=O,8.69%
N#CC1(c2ccccn2)CCN(Cc2cc(C(=O)N3CCCC3)c(=O)n3ccccc23)CC1,-2.01%

# Series 4
# Target: CCND1, cyclin fold, Cln2 fusion (human)
# Technique: yeast growth competition, sequencing
# Matrix: yeast
# Setting: weak parent motif
# Reference: not given
# Direction: higher = stronger binding
# Starting sequence: viral docking peptide; KKVKRRLFETREL
Variant,normalised enrichment score
KKVKARAFETREL [R5A L7A],0.105
KKAKRRLFETREL [V3A],0.298
KKVKKRLLETREL [R5K F8L],0.08
KKVKARLFETREL [R5A],0.268
KKVKRRLFEAREL [T10A],0.218

# A few entries again (series 3):
Compound,inhibition
CN1CCN(C(=O)C(C)(C)c2ccc(C(=O)Nc3cn4cc(-c5cc(C(C)(C)C)cc(C(C)(C)C)c5)ccc4n3)cc2)CC1,68.3%
CC[C@H](CC(=O)O)n1c(=O)c2ncccc2n(Cc2cn(C)c3cc(C)cc(C)c23)c1=O,8.69%
